Measurements of several laboratories.
Each line is one published result; not all experiments were run side by side. ± gives the spread as reported.

SMILES	tested on	assay	system	setting	measurement	value
O=[N+]([O-])c1ccc(/C=N/N=C/c2ccc(OCc3ccccc3)cc2)s1	Trypanosoma equiperdum	parasite growth, CellTiter-Glo	IVM-t1 bloodstream form	72 h	IC50	10500 ± 3760 nM
NC(=O)CCCn1c2ccc([N+](=O)[O-])cc2c(=O)n1Cc1ccccc1	Leishmania amazonensis	parasite growth, resazurin		72 h, promastigote	IC50	800 nM
CCOC(=O)C(CC)NC(=O)CN1C(=O)S/C(=C\c2ccc([N+](=O)[O-])cc2)C1=O (stereo not shown)	Trypanosoma equiperdum	cell viability	IVM-t1	72 h	IC50	> 66000 nM
O=[N+]([O-])c1ccc(/C=N/N=C/c2ccc(O)cc2)s1	Trypanosoma equiperdum	parasite growth, CellTiter-Glo	IVM-t1 bloodstream form	72 h	IC50	500 ± 90 nM
CC(C)(C)c1ccc(OC(=O)/C=C/C#N)cc1	Leishmania amazonensis	parasite growth, resazurin		72 h, promastigote	IC50	20000 nM
COc1cc(CNC(=O)C[C@H](C)CCC=C(C)C)ccc1OCc1cn(-c2cccc(C(F)(F)F)c2)nn1	OVCAR-3 ovarian cancer cells	SRB		10 µM, 48 h	growth percent	103%
O=c1c2cc([N+](=O)[O-])ccc2n(CCN2CCCC2)n1Cc1ccccc1	Leishmania amazonensis	parasite growth, imaging	mouse Peritoneal macrophage	48 h, intracellular, amastigote	IC50	6300 nM
O=[N+]([O-])c1ccc(/C=N/N=C/c2ccccc2)o1	Trypanosoma equiperdum	parasite growth, CellTiter-Glo	IVM-t1 bloodstream form	72 h	IC50	3490 ± 1890 nM
CCN(CC)CC#CCNc1ccnc2cc(Cl)ccc12	Plasmodium falciparum	parasite growth, SYBR Green I	3D7	mean of experiments	IC50	43 ± 5 nM
O=[N+]([O-])/C=C/c1ccc(Br)o1	Leishmania amazonensis	parasite growth		72 h, promastigote	IC50	2100 nM
O=c1c2cc([N+](=O)[O-])ccc2n(CCN2CCCCC2)n1Cc1ccccc1	Leishmania amazonensis	parasite growth, resazurin		72 h, promastigote	IC50	24200 nM
CCOC(=O)CNC(=O)CN1C(=O)S/C(=C\c2ccc(OC)c(O)c2)C1=O	Trypanosoma equiperdum	cell viability	IVM-t1	72 h	IC50	> 64000 nM
COC(=O)Cn1c2ccc([N+](=O)[O-])cc2c(=O)n1Cc1ccccc1	Leishmania amazonensis	parasite growth, imaging	mouse Peritoneal macrophage	48 h, intracellular, amastigote	IC50	> 10000 nM
COc1ccc(/C=N/N=C/c2ccc([N+](=O)[O-])s2)cc1	Trypanosoma equiperdum	parasite growth, CellTiter-Glo	IVM-t1 bloodstream form	72 h	IC50	2100 ± 410 nM
NCCCn1c2ccc([N+](=O)[O-])cc2c(=O)n1Cc1ccccc1	Leishmania amazonensis	parasite growth, imaging	mouse Peritoneal macrophage	48 h, intracellular, amastigote	IC50	8000 nM
C/C(=C\c1ccco1)[N+](=O)[O-]	Leishmania amazonensis, L. infantum, L. braziliensis		promastigotes	mean of three species	IC50	2170 nM
CC(C)=CCCC1(C)CC=NO1 (stereo not shown)	Mycolicibacterium smegmatis	microbial growth			IC50	> 500000 nM
COc1cc(CNC(=O)C[C@H](C)CCC=C(C)C)ccc1OCc1cn(-c2ccccc2)nn1	SF-268 CNS cancer cells	SRB		10 µM, 48 h	growth percent	92.3%
O=[N+]([O-])c1ccc(/C=N/N=C/c2ccc(OCc3ccccc3)cc2)o1	Trypanosoma equiperdum	parasite growth, CellTiter-Glo	IVM-t1 bloodstream form	72 h	IC50	520 ± 90 nM
CCOC(=O)C(C)NC(=O)CN1C(=O)S/C(=C\c2ccc(F)cc2)C1=O (stereo not shown)	Trypanosoma equiperdum	cell viability	IVM-t1	72 h	IC50	> 64000 nM
CC(=O)[O-].O.O.O.O.[Co+2].[O-]c1ccc(Br)cc1C=NCCN1CCOCC1	Aspergillus niger			20 µL of 100 µM per disc	inhibition zone diameter	20 mm
CNCCCn1c2ccc([N+](=O)[O-])cc2c(=O)n1Cc1ccccc1	Leishmania amazonensis	parasite growth, resazurin		72 h, promastigote	IC50	2300 nM
COC1C=COC2(C)Oc3c(C)c(O)c4c(c3C2=O)C2=NC3(CCN(CC(C)C)CC3)NC2=C(NC(=O)C(C)=CC=CC(C)C(O)C(C)C(O)C(C)C(OC(=O)Nc2cscn2)C1C)C4=O (stereo not shown)	Mycobacteroides abscessus	intracellular bacterial growth	THP-1 derived macrophages, ATCC 19977		IC50	10 nM
O=C1Nc2ccc(Cl)cc2C1=Cc1ccc(-c2cccc(C(=O)NCC3CCNCC3)c2)o1 (mixture of isomers)	Ancylostoma ceylanicum	motility	adult worms	24 h	IC50	6000 nM
Cc1nc(C)c(C=[N+]([O-])C(C)(C)C)nc1C		Western blot, refers to: MEF2D	MPTP mouse model, substantia nigra cytosol	30 mg/kg	increase in protein level	73%
O=[N+]([O-])c1ccc(/C=N/N=C/c2ccc(Cl)cc2)s1	Trypanosoma equiperdum	parasite growth, CellTiter-Glo	IVM-t1 bloodstream form	72 h	IC50	1230 ± 160 nM
CN(C(=O)c1ccc2ncc(-c3ccc(C(F)(F)F)cc3)n2n1)c1ccc(C#N)cc1	Plasmodium yoelii	liver schizont development, high-content imaging	HepG2-A16-CD81-EGFP		IC50	< 160 nM
CCOC(=O)C(CC)NC(=O)CN1C(=O)S/C(=C\c2ccc(C)cc2)C1=O (stereo not shown)	Trypanosoma equiperdum	cell viability	IVM-t1	72 h	IC50	> 59000 nM

Repeated from above:
SMILES	tested on	assay	system	setting	measurement	value
O=c1c2cc([N+](=O)[O-])ccc2n(CCN2CCCC2)n1Cc1ccccc1	Leishmania amazonensis	parasite growth, imaging	mouse Peritoneal macrophage	48 h, intracellular, amastigote	IC50	6300 nM
O=[N+]([O-])c1ccc(/C=N/N=C/c2ccccc2)o1	Trypanosoma equiperdum	parasite growth, CellTiter-Glo	IVM-t1 bloodstream form	72 h	IC50	3490 ± 1890 nM
CNCCCn1c2ccc([N+](=O)[O-])cc2c(=O)n1Cc1ccccc1	Leishmania amazonensis	parasite growth, resazurin		72 h, promastigote	IC50	2300 nM
